Results pooled from the literature.
Each numbered part is a random draw from the data of one study; scales do not carry over between parts. Changes are numbered by the printed parent chain.

Sample 1 — method: EMSA with sequencing; form: double-stranded DNA, one strand shown; matrix: in vitro; concentration: 10 and 20 nM; relative to: negative control set to 0; direction: higher = stronger binding
Target: Hepatocyte nuclear factor 3-alpha (Foxa1, Mus musculus, UniProt P35582, residues 1-468, full length assumed)
Chain of UniProt P35582 (whole entry, looked up): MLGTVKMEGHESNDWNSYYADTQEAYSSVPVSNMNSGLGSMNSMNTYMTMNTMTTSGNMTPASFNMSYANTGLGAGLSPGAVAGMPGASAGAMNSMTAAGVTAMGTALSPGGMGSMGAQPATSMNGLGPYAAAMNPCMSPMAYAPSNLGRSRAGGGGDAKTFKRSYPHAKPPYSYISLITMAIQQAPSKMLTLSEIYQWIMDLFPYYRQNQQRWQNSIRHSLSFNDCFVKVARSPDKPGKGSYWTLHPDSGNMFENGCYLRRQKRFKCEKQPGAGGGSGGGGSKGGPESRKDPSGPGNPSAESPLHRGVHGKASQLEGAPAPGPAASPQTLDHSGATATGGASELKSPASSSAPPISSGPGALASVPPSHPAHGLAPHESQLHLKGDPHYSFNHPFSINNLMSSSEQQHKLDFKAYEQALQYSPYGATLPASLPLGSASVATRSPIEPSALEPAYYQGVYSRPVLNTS
Setting: whole designed probe, mean of two concentrations, ends assumed
Under “normalised bound fraction”, `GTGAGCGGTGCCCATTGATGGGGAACGAAATCAGATGGGAACAAACTATTCCAATATACAAATCAAATTTCAGAGTCTGAGTGTACACAGAAAAATTACTGGATATCCTGTTGGACTATGTACTTTACAATGACACAGTGATTTATGAGGGTATGATGGGGCAGAGGGTAGCGGGTGATGTTGGAGTTGATTCATCACTTAAGCGCTAATCCATTCACCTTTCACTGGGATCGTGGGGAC` is recorded as 0.0811 ratio.
Under “normalised bound fraction”, `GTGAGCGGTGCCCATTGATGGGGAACATCTTCCCCCTCTTCCTTGCCCCACCAGCTCACCTTCCCGGGTTATTTGCACAAAGGAAAATAAATAAAGCCGGCATTCGTTAACGCAGTTCTGGCGCAAACTGCTGTTTGCTCTGGATCTAACATGGTCCTTTGGCGACGCCAGGCTCCGGGAGAGCAAAGCACCGTGTCAGGGCCATGATCCGGGCTCGCCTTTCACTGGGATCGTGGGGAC` is recorded as 0.378 ratio.
For `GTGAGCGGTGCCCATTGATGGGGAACATCCCTTTCCCTCTCCTTGCCCCACCAGCTCACCTTCCCGGGTTATTTGCAGATAGGAAAATAAATAAAGCCGGCATTCGTTAACCCTCTTCTGGCGCAAACTGCTGTTTGCTCTGGATGAATCATGGTCCTTTGGCGACGCCAGGCTCCGGGAGAGCAAAGCACCGTGTCAGGGCCATGATCCGGGGTGGCCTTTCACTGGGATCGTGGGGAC`, “normalised bound fraction” read 0.33 ratio.
For `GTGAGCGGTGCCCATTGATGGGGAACCCAGGTATTATCAGAGGGAGACAGGCAGGGAGCTCCCCAGTGAAGGCTCTAGAGCATCCCATAAAAGGATGAAGAGAGAGACAATCCACAAATGCAATTTTCTATTCAATTTTCATTCTATTATAGTTATATTCATAGTTAATACTGTATGAAAATGTTTATTATAGAGTCACCTGCAAGAGCAAAAATAAGATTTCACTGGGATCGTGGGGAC`, “normalised bound fraction” read 0.0388 ratio.
`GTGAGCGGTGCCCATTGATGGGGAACCCCGGAGGACCCGACCGGAGAGGGCGAGAGGAGGAGGAGCCCGGGTGGCGGGAAGCGAGCCCAGGTTCCGGCCGCCTTGCGAGGGCACGCAGGGCAAACAGTGCTTTATCTTTCGCAGCGGCGATGAGCTGGTGACTTTTGGGGGTCATCCTGAGGGACATAGACGAAACTGGTTGGGAGGTAGTTAATTGCTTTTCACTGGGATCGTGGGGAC`: “normalised bound fraction” -0.00288 ratio.

Sample 2 — method: aptamer microarray, sandwich; form: DNA with 2'F-ANA; matrix: in vitro; concentration: 200 nM; added: Cy3 exosite-II aptamer, 400 nM; direction: higher = stronger binding; sequence: GGTTGGTGTGGTTGG
Target: Prothrombin, mature alpha-thrombin (F2, Homo sapiens, UniProt P00734)
Setting: whole 15-mer aptamer, many near background
`2'F-ANA at 1 5 8 10 11 12`: “mean fluorescence intensity” 304 a.u.
`2'F-ANA at 2 6 9 10 12`: “mean fluorescence intensity” 150 a.u.
For `2'F-ANA at 1 5 8 11 13 15`, “mean fluorescence intensity” read 52 a.u.
For `2'F-ANA at 1 2 9 10 11 14`, “mean fluorescence intensity” read 65.6 a.u.
Under “mean fluorescence intensity”, `2'F-ANA at 1 2 5 8 14 15` is recorded as 83.2 a.u.
For `2'F-ANA at 3 6 7 9 10 12 15`, “mean fluorescence intensity” read 542 a.u.
For `2'F-ANA at 1 2 4 11 12 13`, “mean fluorescence intensity” read 176 a.u.
`2'F-ANA at 1 2 3 10 13 14`: “mean fluorescence intensity” 52.4 a.u.

Sample 3 — target: Sox, HMG box (Pigoraptor chileana); method: Spec-seq; form: double-stranded DNA, one strand shown; matrix: in vitro; concentration: not given; setting: whole probe, mean of replicates; relative to: not given; direction: lower = stronger binding; all sequences stand within: GAGTCGTCTCGTCAGCAC … CCGTAGAGCACTCAGGTC
Residues (chain): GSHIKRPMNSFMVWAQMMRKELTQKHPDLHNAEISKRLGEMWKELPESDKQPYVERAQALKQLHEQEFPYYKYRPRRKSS
`CATGGTT` — result for “relative binding energy”: 0.235 ln ratio.
`CATCCCG`: “relative binding energy” 0.799 ln ratio.
For `CATACAA`, “relative binding energy” read -0.586 ln ratio.
`AAGCGTT`: “relative binding energy” -1.11 ln ratio.
`CATGGGA` — result for “relative binding energy”: 0.531 ln ratio.
`CATCTCC`: “relative binding energy” 1.01 ln ratio.
`CGGAGTT`: “relative binding energy” 1.4 ln ratio.
`CATGCGC`: “relative binding energy” 0.654 ln ratio.

Further values, each from its own experiment — starting sequence: viral docking peptide; KGVKRKLFAEDSS
Under “normalised enrichment score”, `A9W` is recorded as 6.12 (CCNA2, cyclin fold, Cln2 fusion (human); yeast growth competition, sequencing; yeast; strong parent motif; relative to: not given, higher = stronger binding).

Repeated from above (sample 2):
For `2'F-ANA at 1 2 9 10 11 14`, “mean fluorescence intensity” read 65.6 a.u.
